{"sequences": {"note": "Protein sequences, listed by entry. Tags and fused reporters are not part of them.", "UniProt Q01959, whole entry": "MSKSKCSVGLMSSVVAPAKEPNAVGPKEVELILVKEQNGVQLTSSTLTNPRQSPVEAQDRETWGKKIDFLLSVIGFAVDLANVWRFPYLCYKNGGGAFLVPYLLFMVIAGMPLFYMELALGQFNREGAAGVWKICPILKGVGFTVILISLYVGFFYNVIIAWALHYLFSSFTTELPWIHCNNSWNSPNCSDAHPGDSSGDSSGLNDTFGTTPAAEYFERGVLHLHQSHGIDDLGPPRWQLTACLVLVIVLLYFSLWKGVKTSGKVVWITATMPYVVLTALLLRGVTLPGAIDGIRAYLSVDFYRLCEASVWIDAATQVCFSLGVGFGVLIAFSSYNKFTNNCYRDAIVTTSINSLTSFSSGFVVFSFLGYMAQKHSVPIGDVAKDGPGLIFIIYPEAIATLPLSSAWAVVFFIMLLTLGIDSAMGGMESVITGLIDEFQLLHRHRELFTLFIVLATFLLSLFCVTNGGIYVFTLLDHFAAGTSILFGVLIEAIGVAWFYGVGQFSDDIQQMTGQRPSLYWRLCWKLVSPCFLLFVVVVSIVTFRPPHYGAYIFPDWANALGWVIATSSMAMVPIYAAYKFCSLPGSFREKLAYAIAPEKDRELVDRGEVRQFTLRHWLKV", "UniProt Q9NWZ3, whole entry": "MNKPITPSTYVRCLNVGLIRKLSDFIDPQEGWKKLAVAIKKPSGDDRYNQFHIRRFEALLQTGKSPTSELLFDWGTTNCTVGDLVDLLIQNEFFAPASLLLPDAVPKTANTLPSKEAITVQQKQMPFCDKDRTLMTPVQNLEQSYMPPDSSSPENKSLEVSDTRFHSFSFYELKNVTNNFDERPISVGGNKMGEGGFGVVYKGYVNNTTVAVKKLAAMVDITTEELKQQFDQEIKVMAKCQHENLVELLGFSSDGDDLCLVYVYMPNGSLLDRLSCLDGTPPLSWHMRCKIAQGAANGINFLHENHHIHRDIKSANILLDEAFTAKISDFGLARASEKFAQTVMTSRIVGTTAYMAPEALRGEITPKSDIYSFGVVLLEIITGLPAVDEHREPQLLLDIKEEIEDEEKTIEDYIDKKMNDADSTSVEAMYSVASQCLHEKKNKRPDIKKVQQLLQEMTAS"}, "data": "Assay results gathered from unrelated publications", "note": "Several values in a cell are separate wells, animals, samples, runs or records. ± gives the spread as reported."}
{"Substance": "CCC(C)C(CC)C(N)=O (stereo not shown)", "assay": "subcutaneous metrazol seizure test", "system": "rat", "conditions": "oral", "measurement": "ED50", "value": "54 mg/kg"}
{"Substance": "CN(C(=O)Cc1ccc(Cl)c(Cl)c1)[C@@H]1CCCC[C@H]1N1CCCC1", "system": "C57BL/6 mouse, male, serum", "conditions": "intraperitoneal, 10 mg/kg, 30 min", "measurement": "serum prolactin", "value": "increased"}
{"Substance": "CCCN1CCN(c2ccc3c(c2)C2CC3CCN2C(=O)OCc2ccccc2)CC1 (stereo not shown)", "tested on": "Sodium-dependent dopamine transporter (SLC6A3, Homo sapiens, UniProt Q01959)", "assay": "binding, radioligand binding", "measurement": "Ki", "value": "2080 nM"}
{"Substance": "CCCCCc1cc(O)c2c(c1)OC(C)(C)[C@@H]1CCC(C)=C[C@@H]21", "assay": "drug discrimination", "system": "mouse C57BL/6", "conditions": "intraperitoneal, 3 mg/kg, trained with 5.6 mg/kg compound", "scale": "baseline: vehicle", "measurement": "drug-lever responding", "value": "increased"}
{"Substance": "CC#C/C(=N\\OC[C@H]1COCCN1)c1ccc2ncnc(Nc3ccc(OCc4cccc(F)c4)c(Cl)c3)c2c1", "tested on": "Interleukin-1 receptor-associated kinase 4 (IRAK4, Homo sapiens, UniProt Q9NWZ3)", "assay": "kinase activity", "conditions": "10 µM", "measurement": "inhibition", "value": "3.8%"}
{"Substance": "CO[C@]12CC[C@@]3(C[C@@H]1[C@](C)(O)C(C)(C)C)[C@H]1Cc4ccc(O)c5c4[C@@]3(CCN1CC1CC1)[C@H]2O5", "assay": "tail-flick antinociception, agonist", "system": "mice", "measurement": "ED50", "value": "0.14 mg/kg"}
{"Substance": "CCN1CCN(Cc2ccc(NC(=O)c3ccc(C)c(/C=C/c4cnc5[nH]ccc5c4OC)c3)cc2C(F)(F)F)CC1", "tested on": "TPM3-PDGFRB fusion", "assay": "kinase-CDC37 interaction, cell-based kinome screen", "conditions": "5 µM", "scale": "baseline: vehicle", "measurement": "log2 fold change", "value": -0.207}
{"Substance": "CO[C@]12CC[C@@]3(C[C@@H]1[C@@](C)(O)C(C)(C)C)[C@H]1Cc4c(Cl)cc(O)c5c4[C@@]3(CCN1CC1CC1)[C@H]2O5", "assay": "tail-flick test", "system": "mice", "conditions": "30 mg/kg", "measurement": "peak antinociception", "value": "15%"}
{"Substance": "CC[C@H](C)[C@@H]1NC(=O)[C@H](CCC(=O)O)NC(=O)[C@@H]2CCCN2C(=O)[C@H](Cc2c[nH]cn2)NC(=O)[C@H](CC(=O)O)NC(=O)[C@H](Cc2ccc(O)cc2)NC(=O)[C@H](CC(N)=O)NC(=O)[C@@H]2CSSC[C@@H]3NC(=O)CNC(=O)CNC(=O)CNC(=O)[C@H](C)NC(=O)[C@H](C)NC(=O)CNC(=O)CNC(=O)[C@H](CSSC[C@H](NC3=O)C(=O)N[C@@H](CO)C(=O)N[C@@H](CC(=O)O)C(=O)N3CCC[C@H]3C(=O)N[C@@H](CCCNC(=N)N)C(=O)N2)NC1=O", "assay": "barium current, inhibitor, electrophysiology", "conditions": "0.2 µM, Cav2.3d Y1765F mutant", "measurement": "inhibition", "value": "11.3 ± 3%"}
{"Substance": "CSc1nc(Cl)cc(Sc2nnc(-c3cc(C(F)(F)F)cc(C(F)(F)F)c3)[nH]2)n1", "tested on": "Salmonella Typhimurium", "system": "SL1344", "conditions": "together with: polymyxin B nonapeptide 25 µg/mL", "measurement": "MIC", "value": "10 µg/mL"}
{"Substance": "C[C@@H](Cc1cccc2ccccc12)NC[C@H](O)c1cc(O)cc(O)c1", "assay": "contractility", "system": "ventricular cardiomyocytes, rat", "measurement": "EC50", "value": "103 ± 34 nM"}
{"Substance": "CN1CC[C@]23c4c5ccc(O)c4O[C@H]2[C@@H](O)C=C[C@H]3[C@H]1C5", "assay": "cAMP inhibition, GloSensor", "conditions": "unit not given", "scale": "baseline: MOR over DOR", "measurement": "ΔΔlog(Emax/EC50)", "value": 2.48}
{"Substance": "nociceptin", "assay": "twitch contraction, electrical stimulation", "system": "mouse vas deferens", "measurement": "Emax", "value": "76 % inhibition and 78 % inhibition"}
{"note": "For quick reference, copied from above:"}
{"Substance": "nociceptin", "assay": "twitch contraction, electrical stimulation", "system": "mouse vas deferens", "measurement": "Emax", "value": "76 % inhibition and 78 % inhibition"}
